Published values pooled from the literature.
Numbered parts are unrelated; each lists some results of a single study. Changes are numbered by the printed parent chain.

Set 1 — method: Sort-seq; item: YFP reporter; medium: E. coli; setting: PhoQ-PhoP variant library; together with: 10 µM Mg2+; reference: high Mg2+ state; reading: higher = stronger signaling
Substance: PhoQ, residues 284 288 289 292 302 303 HSYLQF
target	fold induction
PhoP, residues 12 14 15 18 19 HHYTI (Escherichia coli, UniProt P23836)	1.17
PhoP, residues 12 14 15 18 19 SFCSL (Escherichia coli, UniProt P23836)	35.2
PhoP, residues 12 14 15 18 19 AYFRS (Escherichia coli, UniProt P23836)	2.07

Set 2 — method: protein binding microarray; form: double-stranded DNA, one strand shown; medium: in vitro; concentration: not given; reference: not given; reading: higher = stronger binding
Target: Histone acetyltransferase KAT6A, winged helix 1, GST fusion (KAT6A, Homo sapiens, UniProt Q92794, residues 1-85)
Setting: 8-mer, flanks averaged, mean of 2 arrays, mostly near background
Residues (chain): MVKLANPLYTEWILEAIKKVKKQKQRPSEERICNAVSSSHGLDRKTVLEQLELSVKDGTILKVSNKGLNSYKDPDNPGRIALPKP
Sequence	E-score
AGTTGAGC	-0.123
CTTGGATA	-0.0269
TACCCGTA	0.34
CTTGCGAA	0.162
ACGGCTTG	0.344
GAGGCGCA	0.238
GAGAGTCC	0.00903
ACTCACTC	-0.0562
CCAATAGG	-0.0888
CCTGATGC	-0.0186
AAACAAGT	-0.167
AATCTGTG	-0.166
ATCCTGAC	-0.0611
GACAGGAA	-0.146
GCAGAGTA	-0.054
CGCGCTTA	0.356

Set 3 — method: RNA Bind-n-Seq; form: RNA; medium: in vitro; concentration: 365 nM; reference: no-protein control; reading: higher = stronger binding
Target: RNA binding protein fox-1 homolog 2, RRM domain, GST-SBP tag (RBFOX2, Homo sapiens, UniProt O43251-10, residues 100-194)
Setting: natural RNA segment, single round, ends assumed
Constant ends, left off below: GGGAGUUCUACAGUCCGACGAUC … UGGAAUUCUCGGGUGCCAA
Construct (chain): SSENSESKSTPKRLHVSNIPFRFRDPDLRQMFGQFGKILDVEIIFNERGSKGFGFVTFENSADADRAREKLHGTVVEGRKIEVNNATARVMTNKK
Sequence	RBNS enrichment (R)
CCUAUCUCCCUCCCACAGUGGAGUCCCCAUUACCUUGUCUAAAACAAUUUUUUAAUGUGUUCUGUGGCCGUUUUACUGACAGUAACUGCCAUUUCGUGUCUGUGGUAACA	0.408
UGUCUCCAUGUUGACACUUCAUCCUAGAUUUAAGGAGAGGCAUCAAUUUUUUUUUUUUUUUGCCUCAAGAGAAAUUUCAAAUAUCCAAAUUAAAACACAGUAGCAUUUGA	0.446
UGGAUUAACAAAUAUUUUGAGUUUCCUGAAAACAAACAGAAACAUUAAUGGUAUUGAAGUGUGUUAGUAGUCUGGCCGUGUGCCCAAACUUAUGUUUCGCAGCAAAAGUG	0.298
UUUGUAAGAAGGCAAUAUUAACCUAAUCACCAUGUAAGCACUCUGGAUGAUGGAUUCCACAAAACUUGGUUUUAUGGUUACUUCUUCUCUUAGAUUCUUAAUUCAUGAGG	0.746
ACCCAGGAUGCUUCACUCUUGACUCCAUGCUCUUCCUUUUAUACCAUGUGGCUGUGAAUACAUACUAUGGGAUGGGAUUCAACCCUUCUAAGUAAAUCCUCAGUCUGGUC	0.258
GUGUAUUUGUAUAUUUUAGGUUAAAAAGACUUUAUAUGUUUCAUUCACUUUCCCAUGAAACUGCUGACAGACAGAAGUCACUAAAAUAAGGAAUUUUAAUGUUACUUUUU	0.595
CCACCCAUUUGUUGGCUUUUUUGUUUUUUAAUGUCAGAUCUGUUGAGUUGGUUUUUUUGGUUUUGGUUUUUGUUUUUGUUUUUGUUUUUUACUGAGAAAGGAAGGGCCAA	1.56
UAGACACCCCCAGAAUGCCUGGCGCUCUGCAGAGCACAGUCUGAGCUGCUCUAAGAAGGGGUCUCCUUUACCCUAAAGGCAGCUGGGCAGGGACAGGUGGGAGAAUGGGU	1.42
ACACUGUUAUAGUUAAUCUGACAAAAAUGUCCUCAAAGAGUACUUUAUUUUAUUUAAAGCAUCUGUUUAAUUCAACCUUUAAUAAUUUUGCAAAGAAGGGUAUGUGUGUA	0.804
GAAAGGCUGUGUAGUAGAACCAGAGGCGCCUUCUUGCUCUUGUUUUAUGAUCAGGGUGGAAUGUGCCUCCUGAUGUAUGAGCCUCAUUAAUUUCCAUUUUAAGGUGGUGU	0.534
CUUCUUUCAGCUGUCCCUGUAGCGACAGGUCUAAGAUCUGACUGCCUCCUCCUUUCUCUGGCCUCUUCCCCCUUCCCUCUUCUCUUCAGCUAGGCUAGCUGGUUUGGAGU	0.355
UAUAAAGCCAGGUGUCUUAGCUAGAUAUAUUUCCAGUCUUUUAACUUUGACACUGUGAAGCUCUAAGGAUACAAUAGGAAUGAAGACAGAGGAAGAAAAACUAAAGAGUC	0.564

Set 4 — target: CCNA1, cyclin fold, Cln2 fusion (human); method: yeast growth competition, sequencing; medium: yeast; setting: weak parent motif; reference: not given; reading: higher = stronger binding
Starting sequence: SAMHD1 docking peptide (human); ASKSRVQLFKDDP
Variant	normalised enrichment score
V6F	0.174
L8D	0.237
L8Q	0.272
L8F	-0.0415
D12A	0.164
D11H	0.0611
K10W	-0.132
S2P	0.415

A few entries again (set 3):
Sequence	RBNS enrichment (R)
ACCCAGGAUGCUUCACUCUUGACUCCAUGCUCUUCCUUUUAUACCAUGUGGCUGUGAAUACAUACUAUGGGAUGGGAUUCAACCCUUCUAAGUAAAUCCUCAGUCUGGUC	0.258
GUGUAUUUGUAUAUUUUAGGUUAAAAAGACUUUAUAUGUUUCAUUCACUUUCCCAUGAAACUGCUGACAGACAGAAGUCACUAAAAUAAGGAAUUUUAAUGUUACUUUUU	0.595
CCACCCAUUUGUUGGCUUUUUUGUUUUUUAAUGUCAGAUCUGUUGAGUUGGUUUUUUUGGUUUUGGUUUUUGUUUUUGUUUUUGUUUUUUACUGAGAAAGGAAGGGCCAA	1.56
UAGACACCCCCAGAAUGCCUGGCGCUCUGCAGAGCACAGUCUGAGCUGCUCUAAGAAGGGGUCUCCUUUACCCUAAAGGCAGCUGGGCAGGGACAGGUGGGAGAAUGGGU	1.42
ACACUGUUAUAGUUAAUCUGACAAAAAUGUCCUCAAAGAGUACUUUAUUUUAUUUAAAGCAUCUGUUUAAUUCAACCUUUAAUAAUUUUGCAAAGAAGGGUAUGUGUGUA	0.804
GAAAGGCUGUGUAGUAGAACCAGAGGCGCCUUCUUGCUCUUGUUUUAUGAUCAGGGUGGAAUGUGCCUCCUGAUGUAUGAGCCUCAUUAAUUUCCAUUUUAAGGUGGUGU	0.534
CUUCUUUCAGCUGUCCCUGUAGCGACAGGUCUAAGAUCUGACUGCCUCCUCCUUUCUCUGGCCUCUUCCCCCUUCCCUCUUCUCUUCAGCUAGGCUAGCUGGUUUGGAGU	0.355
